Experimental data from different studies.
A part holds a random share of what one study measured.

Series 1
Target: Histone acetyltransferase KAT6A, winged helix 2, GST fusion (KAT6A, Homo sapiens, UniProt Q92794, residues 85-181)
Method: protein binding microarray
Molecule type: double-stranded DNA, one strand shown
Matrix: in vitro
Concentration: not given
Notes: 8-mer, flanks averaged, mean of 2 arrays, mostly near background
Reference: not given
Reading: higher = stronger binding
Construct (chain): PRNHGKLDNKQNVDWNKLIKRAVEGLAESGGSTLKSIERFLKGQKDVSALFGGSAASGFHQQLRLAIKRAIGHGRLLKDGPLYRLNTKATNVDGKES
The E-score of `CCGTGAAA` is reported as -0.043.
`ACCTCGCG` has an E-score of 0.00527.
`ACTAAGTA` gave an E-score of -0.0961.
The E-score of `TGACGGAA` is reported as -0.0705.
The E-score of `CATTAGGG` is reported as -0.111.
The E-score of `GTCGTGAA` is reported as -0.0561.
`ACGACAGG` has an E-score of 0.158.
`TCGATTAA` gave an E-score of -0.0632.
The E-score of `ACAATGTC` is reported as -0.0644.
The E-score of `CGGACCTC` is reported as 0.155.
`ACCGACAC` has an E-score of -0.00784.
`CCATATAC` gave an E-score of -0.073.
For `GCGGCCTA`, the E-score was -0.0962.
`AGGGGGGG` gave an E-score of -0.0921.
The E-score of `ACATCGTG` is reported as -0.00827.
`GAGTGGAC` has an E-score of -0.0289.
`GATCCATC` has an E-score of -0.0774.
`CGCGATCC` gave an E-score of 0.0894.
`GGATTAAA` gave an E-score of 0.107.
For `TAAGCTCA`, the E-score was -0.0381.
The E-score of `AACCGAGC` is reported as 0.147.
For `ACATGCAT`, the E-score was -0.129.
`AGAAGGGA` has an E-score of -0.129.
`GCTCGGCC` gave an E-score of 0.167.
`GTATATCA` gave an E-score of 0.0232.

Series 2
Target: Prothrombin, mature alpha-thrombin (F2, Homo sapiens, UniProt P00734)
Method: aptamer microarray, sandwich
Molecule type: DNA with 2'F-ANA
Matrix: in vitro
Concentration: 200 nM
Notes: whole 15-mer aptamer, many near background
With: Cy3 exosite-II aptamer, 400 nM
Reading: higher = stronger binding
Strand: GGTTGGTGTGGTTGG
For `2'F-ANA at 8 10 11 12 14`, “mean fluorescence intensity” read 103 a.u.
Under “mean fluorescence intensity”, `2'F-ANA at 3 4 6 9 10 11 12 13 14` is recorded as 158 a.u.
`2'F-ANA at 1 3 6 8 9 11 14 15` — result for “mean fluorescence intensity”: 123 a.u.
`2'F-ANA at 1 2 4 6 7 9 11 13 14`: “mean fluorescence intensity” 50.3 a.u.
Under “mean fluorescence intensity”, `2'F-ANA at 2 3 7 11 13 14` is recorded as 465 a.u.
`2'F-ANA at 1 5 8 9 10`: “mean fluorescence intensity” 44.7 a.u.
`2'F-ANA at 2 3 4 7 9 13 14 15`: “mean fluorescence intensity” 259 a.u.
`2'F-ANA at 4 7 11 12`: “mean fluorescence intensity” 582 a.u.
`2'F-ANA at 2 4 6 8 9 11 12 14`: “mean fluorescence intensity” 127 a.u.
`2'F-ANA at 7 8 11 12 13 14 15` — result for “mean fluorescence intensity”: 241 a.u.
Under “mean fluorescence intensity”, `2'F-ANA at 4 5 6 7 10 11` is recorded as 49 a.u.
`2'F-ANA at 1 2 3 4 6 7 8 10 13 14`: “mean fluorescence intensity” 52.7 a.u.
`2'F-ANA at 1 2 4 5 7 8 9 12 15`: “mean fluorescence intensity” 145 a.u.
Under “mean fluorescence intensity”, `2'F-ANA at 2 3 4 5 6 7 12 14` is recorded as 102 a.u.
`2'F-ANA at 3 4 5 8 11 14` — result for “mean fluorescence intensity”: 54.1 a.u.
Under “mean fluorescence intensity”, `2'F-ANA at 1 2 3 4 5 6 8 9 10 11 12 13 14` is recorded as 50.6 a.u.
Under “mean fluorescence intensity”, `2'F-ANA at 1 2 4 5 6 7 10 13 14` is recorded as 51.8 a.u.
`2'F-ANA at 1 2 4 5 6 8 11 12 13 15` — result for “mean fluorescence intensity”: 61.5 a.u.
`2'F-ANA at 5 8 12 13 14`: “mean fluorescence intensity” 47.4 a.u.
`2'F-ANA at 3 4 5 6 9 11 12 14` — result for “mean fluorescence intensity”: 53.3 a.u.
Under “mean fluorescence intensity”, `2'F-ANA at 1 6 7 10 12 13` is recorded as 65.4 a.u.
`2'F-ANA at 3 8 10 12 13` — result for “mean fluorescence intensity”: 635 a.u.
Under “mean fluorescence intensity”, `2'F-ANA at 1 2 6 7 8 12` is recorded as 343 a.u.

Series 3
Target: RNA binding protein fox-1 homolog 2, RRM domain, GST-SBP tag (RBFOX2, Homo sapiens, UniProt O43251-10, residues 100-194)
Method: RNA Bind-n-Seq
Molecule type: RNA
Matrix: in vitro
Concentration: 365 nM
Notes: natural RNA segment, single round, ends assumed
Reference: no-protein control
Reading: higher = stronger binding
Target sequence (chain): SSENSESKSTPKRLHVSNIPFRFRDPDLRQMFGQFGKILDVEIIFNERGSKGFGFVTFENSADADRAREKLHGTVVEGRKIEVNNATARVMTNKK
Under “RBNS enrichment (R)”, `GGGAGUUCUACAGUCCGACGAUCUCAUCCUUAGGUUUUCUCAAGAUUUAAGUGAACACAUUUACACAUAUCAAUUUCUUAAAGAACACAAAAUGUUUCCUCCCUAGCAAAACUAUUUAAGAGCCAAUUAAACUUGGAAUUCUCGGGUGCCAA` is recorded as 0.371.
For `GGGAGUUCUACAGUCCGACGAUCUUCAAGUGCUAAAAAAAAAAUUAAACCAAGCAGCUUAACCAUGGUUUUGAUUAUUCCUCUAAGAUGAGCUUCUGGGAACAGUAUCACCAAAUGUCCCAAACAUUUAAGCUUGGAAUUCUCGGGUGCCAA`, “RBNS enrichment (R)” read 0.421.
`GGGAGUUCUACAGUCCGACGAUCGUGCAUGCCUGUAAUCCCAGGUACUCGGGAGGCCAAGGCAGGAGAAUCGCUUGAACCCAGGAGGUGAAGGUUACGCUAAGCCAAGAUCACGCCAUUGCACUGCAGCCUGGUGGAAUUCUCGGGUGCCAA`: “RBNS enrichment (R)” 2.27.
`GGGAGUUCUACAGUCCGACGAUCCCCAAUGGCUCUUUUGUGAAUGAUCUGUUUCGUUAUUGUUUAUUGUUGAGUCUGUAUAUCAACAGGGAGAGUGUUGUCUGCUCUUAAACAGGAAUGAAAGGGGGGAGGGGUGGAAUUCUCGGGUGCCAA` — result for “RBNS enrichment (R)”: 0.944.
`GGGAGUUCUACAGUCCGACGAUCGAAAGUUAAAACUAGCUUUAGAGUAAGGAUGAGAAACUUGAGUGUUUUUAAUUUAAAGAUAAAAGCCUGUGUUUUACACAUUCUUUUUUGGUGUUCAUAGCUUCUUCUCAUGGAAUUCUCGGGUGCCAA`: “RBNS enrichment (R)” 0.345.
`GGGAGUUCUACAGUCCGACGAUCCGCCAACUCCCACGCAUUCGUGGGCAGAGCCCCGAGGCUGGUGGGCAGGACAAGGGGACUGGAAGAGGUUUCCUCAGAAGGCUCCCGGAACUUGGAGUCAGGCAUCGUGAUGGAAUUCUCGGGUGCCAA` — result for “RBNS enrichment (R)”: 0.389.
For `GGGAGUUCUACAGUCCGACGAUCUGUCACCUUCUCAUUUGCUGUGUGACUUUGGCCCACUCACAUUCUCUUUGGGCCUCAGUUUUAUCAUUUAUACAAGGAGGGCUUUUCUAGCUGUAACAAUCUGUGAGGAUUGGAAUUCUCGGGUGCCAA`, “RBNS enrichment (R)” read 0.241.
For `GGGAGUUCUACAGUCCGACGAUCGAGCGAGAGAGAGUGAGGACACCGAACUGGGCUGGCGGCUCCAAAGCACAGCCUUCCCUGUUCCGUCCCAGCGGGAGCUGGUGUUAGGGGUCCCAAGGUUGCCACCCACGUGGAAUUCUCGGGUGCCAA`, “RBNS enrichment (R)” read 0.274.
`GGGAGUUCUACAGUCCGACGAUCGGAGAGUCCUUCUAAACCUAUAUUCUGCUCCACCGCAACUCCCUCACCUAUCCUCAGGCUCACAGUGGAAAUGUCCAGGGACAGGGCUGUUAGAAUGAGCUAAGGGAGACUGGAAUUCUCGGGUGCCAA`: “RBNS enrichment (R)” 0.423.
`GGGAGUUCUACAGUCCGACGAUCAAUCAAUUUAAUGGUCCUUUAAAAUGUCUGUGUAUUAAAAAUUUAAGAAUACCACACUUUAAUAUUAAAUAUUCAUAAGGUCUAGUAUCUUGAUAAUAAUGUAGAUGUUUUGGAAUUCUCGGGUGCCAA` — result for “RBNS enrichment (R)”: 0.442.
Under “RBNS enrichment (R)”, `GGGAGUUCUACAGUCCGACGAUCAGAAGACACUGUGCACCAGCUGUGCUAUGUUUGAAGCUGAGGUGGCCACAGACAGCACAAGAUGUUCACACUAAAGAGAGAGAAGGUGGCUUUUUAUAUGUUAUGUUUUAUGGAAUUCUCGGGUGCCAA` is recorded as 2.68.
Under “RBNS enrichment (R)”, `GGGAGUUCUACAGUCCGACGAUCCUUGAAGUAUCUUUCGUGAGAGUAGUAUGGAAGUAAAACGUUCUCAUAUCAGGAGGAUGUCAUUUGUGAAGCAUGGGGACAUCAUGAACUAGUGAUGUGCGUGAGGCUUGUGGAAUUCUCGGGUGCCAA` is recorded as 3.52.

Series 4
Target: Fragile X messenger ribonucleoprotein 1, C-terminal low-complexity region (Fmr1, Mus musculus, UniProt P35922)
Method: RNA Bind-n-Seq
Molecule type: RNA
Matrix: in vitro
Concentration: 200 nM
Notes: whole 134-nt RNA, ends assumed
With: 150 mM KCl
Reference: input library
Reading: higher = stronger binding
With `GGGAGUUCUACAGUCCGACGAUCACCAUGCAGGUGGGCAUCUUUGGGAAGUGGGGCAAGGGGGGGAUAGGGAGGGGGGUAACACUUUGGGAACAGGUGGUCCCAGGUCGAUUCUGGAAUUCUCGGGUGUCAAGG` the log2 enrichment was 0.588.
`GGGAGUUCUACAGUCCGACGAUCCCUGUGCUACACAUCGUAUGUACCGAAUCGGGGUGGGGAAAAAAAGGGGUUUUUUUGGGGAAAGUAUUAUGUUACGCCGUUCGGAUCUGCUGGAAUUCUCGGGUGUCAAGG` gave a log2 enrichment of 0.363.
The log2 enrichment of `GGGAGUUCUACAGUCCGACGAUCCUCAAGUCCUGUGCUACACAUCGUAUGUACCGAAUCGGGAGGGGAGGGGAGGGGAAAGUAUUAUGUUACGCCGUUCGGAUCUGCACUUCCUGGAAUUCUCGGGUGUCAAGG` is reported as 1.18.
For `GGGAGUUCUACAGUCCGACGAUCCACAGACAACACGCACCCACACAGACACAGAGGGAAGGGGUUGGGAUGGGGACAAGGUGCACAGCAGGGCGGGGUAGGACCCCAGCCCCUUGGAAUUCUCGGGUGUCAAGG`, the log2 enrichment was 1.26.
`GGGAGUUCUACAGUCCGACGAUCGUCCUGUGCUACACAUCGUAUGUACCGAAUCGGGUUUGGGUUUUUUUGGGAAAAAGGGAAAGUAUUAUGUUACGCCGUUCGGAUCUGCACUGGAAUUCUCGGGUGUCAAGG` has a log2 enrichment of 0.0634.
With `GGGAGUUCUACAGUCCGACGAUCUCCUGUGCUACACAUCGUAUGUACCGAAUCGGGGAAAAAAAGGGGUUUGGGGUUUGGGGAAAGUAUUAUGUUACGCCGUUCGGAUCUGCAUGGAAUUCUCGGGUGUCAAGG` the log2 enrichment was 0.843.
`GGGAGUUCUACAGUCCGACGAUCUCAAGUCCUGUGCUACACAUCGUAUGUACCGAAUCGGGGUUUGGGUUUGGUUUGGAAAGUAUUAUGUUACGCCGUUCGGAUCUGCACUUCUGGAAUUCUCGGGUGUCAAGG` has a log2 enrichment of -0.00225.
`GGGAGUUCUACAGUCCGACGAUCUGGGCAUUUUGGUGGAGACGAUGAGCACCAACGACACGAUCGUCAGUGGCACGCUGCCCCAGCGCAUGGCGUCCUGCCUGGAGGUGCUGGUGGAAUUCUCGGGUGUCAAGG` has a log2 enrichment of -1.2.
For `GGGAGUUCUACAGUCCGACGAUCCACAGACAACACGCACCCACACAGACACAGAGGGAAGGGGUUGGGAUGGGGCCAGGGUGCACAGCAGGGCGGGGUAGGACCCCAGCCCCUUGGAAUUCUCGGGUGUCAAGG`, the log2 enrichment was 1.23.
`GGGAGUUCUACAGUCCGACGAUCUGGCCCUGGUGGCAUGCGGGGAGGAAGAGGUGGCCUCAUGGAUCGUGGUGGGCCCGGUGGAAUGUUCAGAGGUGGCCGUGGUGGAGACAGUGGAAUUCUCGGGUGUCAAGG` has a log2 enrichment of 0.476.
